Measured values of several laboratories.
Every numbered part comes from another study and shows a few of its results, in no order. Several values in a cell are separate wells, animals, samples, runs or records.
Sequence of UniProt Q15569 (whole entry, looked up): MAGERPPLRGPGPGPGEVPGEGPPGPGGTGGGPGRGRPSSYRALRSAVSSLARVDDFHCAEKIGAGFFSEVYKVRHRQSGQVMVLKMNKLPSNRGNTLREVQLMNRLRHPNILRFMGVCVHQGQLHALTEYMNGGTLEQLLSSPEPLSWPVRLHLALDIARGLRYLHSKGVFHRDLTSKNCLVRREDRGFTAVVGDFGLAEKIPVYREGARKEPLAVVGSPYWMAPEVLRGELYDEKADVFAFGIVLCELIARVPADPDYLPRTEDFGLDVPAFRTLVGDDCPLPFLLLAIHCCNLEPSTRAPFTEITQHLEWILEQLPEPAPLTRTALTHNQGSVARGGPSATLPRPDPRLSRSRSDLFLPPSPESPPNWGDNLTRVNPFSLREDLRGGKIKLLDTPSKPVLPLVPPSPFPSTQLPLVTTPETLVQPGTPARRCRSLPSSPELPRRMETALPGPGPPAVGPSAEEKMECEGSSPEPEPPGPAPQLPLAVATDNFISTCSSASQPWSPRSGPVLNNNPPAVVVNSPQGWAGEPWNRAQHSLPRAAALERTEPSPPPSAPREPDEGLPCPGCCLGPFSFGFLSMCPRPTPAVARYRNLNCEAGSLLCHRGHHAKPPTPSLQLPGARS
Sequence of UniProt Q9Y2H9 (whole entry, looked up): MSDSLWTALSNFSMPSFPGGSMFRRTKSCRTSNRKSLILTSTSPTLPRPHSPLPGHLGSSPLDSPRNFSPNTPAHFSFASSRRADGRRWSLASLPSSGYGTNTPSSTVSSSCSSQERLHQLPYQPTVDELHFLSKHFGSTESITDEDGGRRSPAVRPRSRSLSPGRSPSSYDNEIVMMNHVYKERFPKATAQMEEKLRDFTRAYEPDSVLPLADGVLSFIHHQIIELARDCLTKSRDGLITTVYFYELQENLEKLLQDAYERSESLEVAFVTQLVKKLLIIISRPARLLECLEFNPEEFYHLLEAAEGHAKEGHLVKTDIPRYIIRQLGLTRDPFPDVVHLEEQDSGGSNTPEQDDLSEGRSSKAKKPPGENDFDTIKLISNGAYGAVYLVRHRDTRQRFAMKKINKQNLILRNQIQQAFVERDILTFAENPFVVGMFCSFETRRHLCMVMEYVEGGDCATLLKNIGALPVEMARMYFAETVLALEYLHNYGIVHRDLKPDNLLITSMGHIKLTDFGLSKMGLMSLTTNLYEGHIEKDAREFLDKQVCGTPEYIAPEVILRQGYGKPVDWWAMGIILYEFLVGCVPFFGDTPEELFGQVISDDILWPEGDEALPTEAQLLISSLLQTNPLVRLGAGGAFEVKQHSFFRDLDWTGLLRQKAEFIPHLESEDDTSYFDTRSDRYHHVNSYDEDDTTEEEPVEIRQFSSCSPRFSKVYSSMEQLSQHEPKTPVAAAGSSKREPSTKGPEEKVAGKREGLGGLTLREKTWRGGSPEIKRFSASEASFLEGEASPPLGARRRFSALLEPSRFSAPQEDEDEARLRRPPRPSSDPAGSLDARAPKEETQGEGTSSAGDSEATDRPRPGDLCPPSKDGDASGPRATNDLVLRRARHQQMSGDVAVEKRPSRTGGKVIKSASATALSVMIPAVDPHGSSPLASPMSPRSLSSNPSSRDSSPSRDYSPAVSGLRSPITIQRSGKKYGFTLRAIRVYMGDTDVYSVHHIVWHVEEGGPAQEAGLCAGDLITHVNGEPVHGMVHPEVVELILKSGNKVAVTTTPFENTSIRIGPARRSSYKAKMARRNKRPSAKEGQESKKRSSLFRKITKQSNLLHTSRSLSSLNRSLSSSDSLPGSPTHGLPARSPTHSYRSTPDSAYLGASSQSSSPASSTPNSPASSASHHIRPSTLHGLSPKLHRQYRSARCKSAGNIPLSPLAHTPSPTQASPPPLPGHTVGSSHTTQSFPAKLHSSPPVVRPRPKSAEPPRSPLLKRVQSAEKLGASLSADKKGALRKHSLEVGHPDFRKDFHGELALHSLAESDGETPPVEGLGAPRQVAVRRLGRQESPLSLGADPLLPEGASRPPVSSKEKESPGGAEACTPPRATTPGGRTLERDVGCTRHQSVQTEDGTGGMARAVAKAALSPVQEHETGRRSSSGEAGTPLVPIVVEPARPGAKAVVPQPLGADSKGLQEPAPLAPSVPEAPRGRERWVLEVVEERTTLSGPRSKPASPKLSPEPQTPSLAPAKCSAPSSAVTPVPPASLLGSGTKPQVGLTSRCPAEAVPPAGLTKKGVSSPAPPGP
Sequence of UniProt Q9UIK4 (whole entry, looked up): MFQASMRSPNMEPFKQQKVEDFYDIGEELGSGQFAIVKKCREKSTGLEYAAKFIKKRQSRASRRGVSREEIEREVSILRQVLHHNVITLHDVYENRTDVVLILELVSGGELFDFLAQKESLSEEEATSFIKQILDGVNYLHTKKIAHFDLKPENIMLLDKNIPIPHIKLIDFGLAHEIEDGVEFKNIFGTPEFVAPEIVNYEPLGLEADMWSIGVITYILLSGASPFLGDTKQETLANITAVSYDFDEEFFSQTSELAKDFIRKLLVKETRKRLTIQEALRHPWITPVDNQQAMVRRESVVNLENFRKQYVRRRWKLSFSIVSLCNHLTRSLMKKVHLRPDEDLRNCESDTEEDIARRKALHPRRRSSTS
Sequence of UniProt Q6PHR2 (whole entry, looked up): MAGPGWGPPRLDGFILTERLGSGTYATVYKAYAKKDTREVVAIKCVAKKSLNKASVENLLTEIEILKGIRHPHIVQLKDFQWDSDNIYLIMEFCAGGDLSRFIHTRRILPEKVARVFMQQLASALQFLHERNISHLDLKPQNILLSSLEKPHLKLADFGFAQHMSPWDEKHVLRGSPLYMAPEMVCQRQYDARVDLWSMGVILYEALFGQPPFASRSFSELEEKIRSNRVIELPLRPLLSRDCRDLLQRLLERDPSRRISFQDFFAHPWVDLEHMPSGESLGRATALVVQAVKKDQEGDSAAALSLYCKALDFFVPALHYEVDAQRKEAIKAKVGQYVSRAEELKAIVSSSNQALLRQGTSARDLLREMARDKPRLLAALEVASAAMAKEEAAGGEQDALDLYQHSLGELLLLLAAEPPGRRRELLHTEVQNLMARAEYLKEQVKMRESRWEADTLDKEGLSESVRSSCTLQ
Sequence of UniProt P51812 (whole entry, looked up): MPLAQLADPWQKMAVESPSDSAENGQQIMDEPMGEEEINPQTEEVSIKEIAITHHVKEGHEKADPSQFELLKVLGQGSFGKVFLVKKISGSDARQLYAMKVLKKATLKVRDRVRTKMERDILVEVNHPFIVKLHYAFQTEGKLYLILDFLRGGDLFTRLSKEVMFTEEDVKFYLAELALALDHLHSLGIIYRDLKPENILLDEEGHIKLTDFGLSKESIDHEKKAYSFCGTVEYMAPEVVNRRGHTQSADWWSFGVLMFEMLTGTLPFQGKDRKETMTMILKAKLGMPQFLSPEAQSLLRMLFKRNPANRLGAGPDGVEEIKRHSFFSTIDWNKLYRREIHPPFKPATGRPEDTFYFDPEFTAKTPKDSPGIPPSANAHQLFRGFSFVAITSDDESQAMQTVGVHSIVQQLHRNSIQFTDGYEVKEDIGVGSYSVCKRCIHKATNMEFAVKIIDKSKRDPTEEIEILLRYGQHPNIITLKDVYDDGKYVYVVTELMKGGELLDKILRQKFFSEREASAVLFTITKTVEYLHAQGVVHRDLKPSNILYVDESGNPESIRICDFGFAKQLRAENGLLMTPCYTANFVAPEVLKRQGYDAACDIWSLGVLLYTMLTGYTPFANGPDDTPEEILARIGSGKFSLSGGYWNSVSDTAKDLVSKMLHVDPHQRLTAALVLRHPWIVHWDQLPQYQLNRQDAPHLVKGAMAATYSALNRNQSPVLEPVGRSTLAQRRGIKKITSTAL
Sequence of UniProt P11802 (whole entry, looked up): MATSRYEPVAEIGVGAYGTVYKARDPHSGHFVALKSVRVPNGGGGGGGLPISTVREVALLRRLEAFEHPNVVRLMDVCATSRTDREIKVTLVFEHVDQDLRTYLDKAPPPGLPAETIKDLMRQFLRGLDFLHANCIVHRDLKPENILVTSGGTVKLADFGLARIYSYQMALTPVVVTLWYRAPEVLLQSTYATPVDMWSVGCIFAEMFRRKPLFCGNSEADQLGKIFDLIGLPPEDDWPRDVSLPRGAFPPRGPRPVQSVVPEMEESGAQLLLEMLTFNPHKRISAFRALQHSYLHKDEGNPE

Block 1
Compound: C[C@@H]1CN(c2cc(-c3n[nH]c4ccc(OC5(C)CC5)cc34)ncn2)C[C@H](C)O1
Effect on: cell-free assay
Technique: competition with immobilised ligand
Tested at: 0.1 µM
target | remaining binding [%]
Ribosomal protein S6 kinase alpha-1, C-terminal kinase domain (RPS6KA1, Homo sapiens, UniProt Q15418) | 93
Cyclin-dependent kinase 4, with cyclin D3 (CDK4, Homo sapiens, UniProt P11802) | 68
STK39 (Homo sapiens, UniProt Q9UEW8) | 85
DAPK2 (Homo sapiens, UniProt Q9UIK4) | 85
Ribosomal protein S6 kinase alpha-3, C-terminal kinase domain (RPS6KA3, Homo sapiens, UniProt P51812) | 85
MAST1 (Homo sapiens, UniProt Q9Y2H9) | 70
EGFR (Homo sapiens, UniProt P00533, T790M) | 100
Tyrosine-protein kinase ABL1, non-phosphorylated (ABL1, Homo sapiens, UniProt P00519, Q252H) | 100
ABL2 (Homo sapiens, UniProt P42684) | 73
ULK3 (Homo sapiens, UniProt Q6PHR2) | 78
MYLK2 (Homo sapiens, UniProt Q9H1R3) | 91
TESK1 (Homo sapiens, UniProt Q15569) | 75
STK32C (Homo sapiens, UniProt Q86UX6) | 89
CSK (Homo sapiens, UniProt P41240) | 100
MARK2 (Homo sapiens, UniProt Q7KZI7) | 100
RIOK3 (Homo sapiens, UniProt O14730) | 100
NEK9 (Homo sapiens, UniProt Q8TD19) | 100
GRK4 (Homo sapiens, UniProt P32298) | 100
PAK3 (Homo sapiens, UniProt O75914) | 83
NEK6 (Homo sapiens, UniProt Q9HC98) | 100
CDKL3 (Homo sapiens, UniProt Q8IVW4) | 75
FGFR3 (Homo sapiens, UniProt P22607) | 74
PDGFRA (Homo sapiens, UniProt P16234) | 75
PLK4 (Homo sapiens, UniProt O00444) | 71
TLK2 (Homo sapiens, UniProt Q86UE8) | 100

Block 2
Host: human
Matrix: microsomes or S9
Tested at: 2 µM
Time: 0.5 h
Compound | remaining compound [%]
Cc1cccc(Cn2c3cc(=O)n(CCC4C=Nc5ccccc54)c(C)c3c(=O)n2-c2ccccc2)c1 (stereo not shown) | 14.2
O=C(O)c1ccc2c(Br)c(O)c(C(=O)O)cc2c1 | 56.9
NC(=O)C1CCC(CNCc2cc3ccccc3s2)CC1 (stereo not shown) | 85.1
O=C(c1c(OCC2CC2)cc(=O)n2c1CCOCC2)N1CCN(c2ncccn2)CC1 | > 99
O=C(COc1ccccc1)NCCn1cc(-c2ccncc2)c(-c2ccccc2F)n1 | 5.06
Cc1cccc(C(O)(C(=O)NNc2ccc(Br)cn2)c2cccc(C)c2)c1 | 10.7
Nc1nc2n(c1C(=O)c1ccc(Br)cc1)CCCC2 | 96.5
CC1=C(Br)C(=O)N(C(C)(C(N)=O)C(C)C)C1=O (stereo not shown) | 99.6

Block 3
SMILES: CC(=O)N[C@@H](Cc1c[nH]c2ccccc12)C(=O)N[C@@H](CCC(=O)C=[N+]=[N-])C(=O)OC(C)C
Route: subcutaneous
Dose: 0.3 mg/kg/day DON equivalent
Time: 5 days
Direction: higher = more metabolite
technique | refers to | cells | host | matrix | metabolite peak area
UPLC-MS/MS metabolomics | creatinine | EL4 | C57BL/6 CES1-/- mice, EL4 tumour | tumour | 8.81e+07 a.u. and 1.48e+08 a.u. and 2.37e+08 a.u. and 6.86e+07 a.u. and 1.14e+08 a.u. and 1.78e+08 a.u.
UPLC-MS/MS metabolomics | erythronate | EL4 | C57BL/6 CES1-/- mice, EL4 tumour | tumour | 3.76e+08 a.u. and 3.53e+08 a.u. and 2.55e+08 a.u. and 3.97e+08 a.u. and 2.18e+08 a.u. and 3.25e+08 a.u.
UPLC-MS/MS | 2-aminophenol sulfate | – | C57BL/6 CES1-/- mice | EL4 tumour | 79900 a.u. and 71500 a.u. and 35400 a.u. and 77000 a.u. and 139000 a.u. and 103000 a.u.
UPLC-MS/MS metabolomics | galactitol | EL4 | C57BL/6 CES1-/- mice, EL4 tumour | tumour | 1.91e+06 a.u. and 3.58e+06 a.u. and 2.62e+06 a.u. and 3.54e+06 a.u. and 2.85e+06 a.u. and 2.28e+06 a.u.
UPLC-MS/MS | valine | – | C57BL/6 CES1-/- mice | EL4 tumour | 1.56e+09 a.u. and 2.41e+09 a.u. and 1.7e+09 a.u. and 1.99e+09 a.u. and 1.68e+09 a.u. and 1.85e+09 a.u.
UPLC-MS/MS | ascorbic acid 3-sulfate | – | C57BL/6 CES1-/- mice | EL4 tumour | 4.86e+06 a.u. and 2.93e+06 a.u. and 1.94e+06 a.u. and 2.35e+06 a.u. and 2.86e+06 a.u. and 3.66e+06 a.u.
UPLC-MS/MS metabolomics | cysteine-glutathione disulfide | EL4 | C57BL/6 CES1-/- mice, EL4 tumour | tumour | 9.21e+07 a.u. and 4.68e+07 a.u. and 4.75e+07 a.u. and 3.46e+07 a.u. and 2.82e+07 a.u. and 6.09e+07 a.u.

Block 4
Target: Serine/threonine-protein kinase 10 (STK10, Homo sapiens, UniProt O94804)
Sequence of UniProt O94804 (whole entry, looked up): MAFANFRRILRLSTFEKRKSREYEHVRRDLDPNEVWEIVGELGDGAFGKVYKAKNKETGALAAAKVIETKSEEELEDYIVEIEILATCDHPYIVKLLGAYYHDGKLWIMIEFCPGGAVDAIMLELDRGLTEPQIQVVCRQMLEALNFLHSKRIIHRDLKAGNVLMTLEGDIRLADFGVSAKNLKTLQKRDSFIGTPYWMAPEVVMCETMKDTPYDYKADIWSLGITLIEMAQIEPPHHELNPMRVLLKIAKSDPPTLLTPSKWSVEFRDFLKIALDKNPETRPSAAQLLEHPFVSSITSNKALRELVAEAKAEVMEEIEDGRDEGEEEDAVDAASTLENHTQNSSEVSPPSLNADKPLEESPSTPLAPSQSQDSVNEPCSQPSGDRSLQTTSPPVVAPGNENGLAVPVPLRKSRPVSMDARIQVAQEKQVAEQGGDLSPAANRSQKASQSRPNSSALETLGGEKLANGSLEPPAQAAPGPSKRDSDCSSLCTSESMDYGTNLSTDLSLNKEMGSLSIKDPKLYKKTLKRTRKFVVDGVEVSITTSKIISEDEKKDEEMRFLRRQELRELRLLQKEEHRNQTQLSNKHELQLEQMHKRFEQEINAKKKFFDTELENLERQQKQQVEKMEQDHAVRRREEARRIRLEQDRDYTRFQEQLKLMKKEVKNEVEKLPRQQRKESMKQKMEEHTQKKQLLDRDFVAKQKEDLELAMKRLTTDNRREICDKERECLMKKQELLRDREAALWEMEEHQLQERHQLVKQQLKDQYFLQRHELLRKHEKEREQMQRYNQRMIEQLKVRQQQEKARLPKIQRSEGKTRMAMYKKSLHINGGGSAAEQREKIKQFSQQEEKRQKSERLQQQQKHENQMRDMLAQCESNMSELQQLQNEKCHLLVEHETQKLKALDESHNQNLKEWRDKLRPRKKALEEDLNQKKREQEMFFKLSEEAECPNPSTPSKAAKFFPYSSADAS
Effect on: enzyme activity
Action: inhibitor
Tested at: 0.5 µM
Relative to: control
SMILES | remaining activity
Cn1sc(=O)n(Cc2ccccc2)c1=O | 98.1%
O=C(Nc1cccc(Nc2cc(Nc3cccc(C(F)(F)F)c3)ncn2)c1)C1CC1 | 95.7%
CO[C@H]1C[C@@H]2CC[C@@H](C)[C@@](O)(O2)C(=O)C(=O)N2CCCC[C@H]2C(=O)O[C@H]([C@H](C)C[C@@H]2CC[C@@H](O)[C@H](OC)C2)CC(=O)[C@H](C)/C=C(\C)[C@@H](O)[C@@H](OC)C(=O)[C@H](C)C[C@H](C)/C=C/C=C/C=C/1C | 97.7%
COc1ccc(CNC(=O)Nc2ncc([N+](=O)[O-])s2)cc1 | 94.3%
COc1cc2ncnc(Nc3ccc(Oc4ccccc4)cc3)c2cc1OC | 74%
Cc1ccc(NC(=O)c2ccc(CN3CCN(C)CC3)cc2)cc1Nc1nc(-c2cccnc2)cs1 | 93.8%
COc1cc2nccc(Oc3ccc(NC(=S)NC(=O)c4ccccc4C)cc3)c2cc1OC | 11.9%
CC(C)[C@H](CO)Nc1nc(Nc2cc(N)cc(Cl)c2)c2ncn(C(C)C)c2n1 | 55.6%
COc1cc2ncnc(Nc3ccc(F)c(Cl)c3)c2cc1OCCCN1CCOCC1 | 38.6%
Nc1ncnc2n[nH]c(Nc3ccc(F)cc3)c12 | 70.5%
CCOC(=O)c1c(C)[nH]c(/C=C2\C(=O)Nc3ccccc32)c1C | 82.2%
CN(C)c1ccc(C=C2C(=O)Nc3ccccc32)cc1 | 95.4%
Oc1ccc(-c2nc(-c3ccncc3)c(-c3ccc(F)cc3)[nH]2)cc1 | 85%
Nc1ccc2ncnc(NCCc3ccc(Oc4ccccc4)cc3)c2c1 | 90.8%
O=C(CCCc1ccc(-c2ccccc2F)cc1)Nc1ccc(O)cc1 | 95.3%

Excerpt of the above (block 4):
SMILES | remaining activity
CC(C)[C@H](CO)Nc1nc(Nc2cc(N)cc(Cl)c2)c2ncn(C(C)C)c2n1 | 55.6%
CO[C@H]1C[C@@H]2CC[C@@H](C)[C@@](O)(O2)C(=O)C(=O)N2CCCC[C@H]2C(=O)O[C@H]([C@H](C)C[C@@H]2CC[C@@H](O)[C@H](OC)C2)CC(=O)[C@H](C)/C=C(\C)[C@@H](O)[C@@H](OC)C(=O)[C@H](C)C[C@H](C)/C=C/C=C/C=C/1C | 97.7%
O=C(Nc1cccc(Nc2cc(Nc3cccc(C(F)(F)F)c3)ncn2)c1)C1CC1 | 95.7%
Cc1ccc(NC(=O)c2ccc(CN3CCN(C)CC3)cc2)cc1Nc1nc(-c2cccnc2)cs1 | 93.8%
Cn1sc(=O)n(Cc2ccccc2)c1=O | 98.1%
O=C(CCCc1ccc(-c2ccccc2F)cc1)Nc1ccc(O)cc1 | 95.3%
Nc1ncnc2n[nH]c(Nc3ccc(F)cc3)c12 | 70.5%
CCOC(=O)c1c(C)[nH]c(/C=C2\C(=O)Nc3ccccc32)c1C | 82.2%
CN(C)c1ccc(C=C2C(=O)Nc3ccccc32)cc1 | 95.4%
